Measured values collected from several papers.
Every numbered part comes from another study and shows a few of its results, in no order. Changes are numbered by the printed parent chain.

Study 1
Target: CCNA1, cyclin fold, Cln2 fusion (human)
Technique: yeast growth competition, sequencing
Matrix: yeast
Setting: weak parent motif
Reference: not given
Reading: higher = stronger binding
Starting sequence: E2F1 docking peptide (human); PPVKRRLDLETDH
| Variant | normalised enrichment score |
| --- | --- |
| PPVKRRLDLEVDH [T11V] | 0.373 |
| PPVKRRLDLETDD [H13D] | 0.251 |
| PPVKRYLDLETDH [R6Y] | 0.389 |
| PPVKRSLDLETDH [R6S] | 0.206 |
| FPVKRRLDLETDH [P1F] | 0.77 |
| PPVKARLDLETDH [R5A] | 0.356 |
| PPVNRRLDLETDH [K4N] | 0.257 |
| PAVKRRLDLETDH [P2A] | 0.433 |
| PPVWRRLDLETDH [K4W] | 0.194 |
| PRVKRRLDLETDH [P2R] | 0.365 |
| PPVKRRLDLITDH [E10I] | 0.66 |
| PPVKRRLSLETDH [D8S] | 0.573 |
| PPVKMRLDLETDH [R5M] | 0.16 |
| HPVKRRLDLETDH [P1H] | 0.664 |
| PPVHRRLDLETDH [K4H] | 0.449 |
| PPVKRRLDLETVH [D12V] | 0.609 |
| PPVKRRLDLETMH [D12M] | 0.367 |
| YPVKRRLDLETDH [P1Y] | 0.888 |
| PPVKRRLDLGTDH [E10G] | 0.505 |
| PPVQRRLDLETDH [K4Q] | 0.427 |
| PPVKRALDLETDH [R6A] | -0.0342 |
| PPVKRRLDLETDN [H13N] | 0.541 |
| DPVKRRLDLETDH [P1D] | 0.135 |
| RPVKRRLDLETDH [P1R] | 0.0907 |
| PPVKRRLFLETDH [D8F] | 0.486 |

Study 2
Target: CREB3L1, bZIP domain (human)
Technique: DHFR protein complementation
Matrix: yeast
Setting: single substitutions, most at no-binding floor
Reference: wild-type JUN-FOS pair
Reading: higher = stronger binding
Starting sequence: JUN, bZIP domain (human); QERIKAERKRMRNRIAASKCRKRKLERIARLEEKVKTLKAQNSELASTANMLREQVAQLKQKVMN; partner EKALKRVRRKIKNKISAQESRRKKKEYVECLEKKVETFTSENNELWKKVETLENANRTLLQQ
| Variant | binding fitness [natural log] |
| --- | --- |
| E44A | -1.39 |
| L45P | -1.53 |
| A46F | -1.45 |
| E54Q | -1.45 |
| L59T | -1.43 |
| Q41N | -1.49 |
| A40V | -1.18 |
| T37M | -0.925 |
| L45G | -1.51 |
| V56L | -1.4 |
| K36M | -1.25 |
| V56Y | -1.5 |
| A29G | -1.38 |
| R30N | -1.53 |
| V56R | -1.41 |
| R53Q | -1.41 |
| T37V | -1.41 |
| K34L | -1.29 |
| A46Y | -1.24 |
| I28V | -1.45 |
| V35H | -1.52 |
| Q55M | -1.14 |

Study 3
Target: Centromere-binding protein 1, full length, His-tagged (CBF1, Saccharomyces cerevisiae, UniProt P17106, residues 1-351)
Sequence of UniProt P17106 (whole entry, looked up): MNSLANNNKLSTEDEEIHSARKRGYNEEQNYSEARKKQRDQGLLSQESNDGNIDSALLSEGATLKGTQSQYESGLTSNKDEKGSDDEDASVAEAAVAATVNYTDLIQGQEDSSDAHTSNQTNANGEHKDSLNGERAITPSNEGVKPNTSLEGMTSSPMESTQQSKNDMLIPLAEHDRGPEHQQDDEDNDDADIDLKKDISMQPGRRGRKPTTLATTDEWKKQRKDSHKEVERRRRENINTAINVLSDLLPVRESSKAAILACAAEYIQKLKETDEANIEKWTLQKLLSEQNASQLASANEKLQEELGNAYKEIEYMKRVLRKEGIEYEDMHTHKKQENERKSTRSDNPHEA
Technique: competition protein-binding microarray
Molecule type: double-stranded DNA, one strand shown
Matrix: in vitro
Tested at: 2 µM
Setting: whole 60-bp probe, lowest competitor level
With: Pho4 competitor, 0.05 µM
Reading: higher = stronger binding
| Sequence | fluorescence intensity [a.u.] |
| --- | --- |
| ATGAGCTACATTCACCACGTGTCGGAGACTGGGAAAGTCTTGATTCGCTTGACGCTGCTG | 855 |
| AAAGCGGTAATTTGACACGTGTTTTCACATATCTATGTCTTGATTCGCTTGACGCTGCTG | 2050 |
| CTAACGAAGGTTTAGCACGTGTTTTACAAGCCAAGTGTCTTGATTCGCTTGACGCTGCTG | 2210 |
| TGCAGCGGGTGCGGCCACGTTTTAAAGTGATTCTGCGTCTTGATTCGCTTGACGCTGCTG | 102 |
| AGGCAGGCGAACATCAACGTGATGGTTACCAACAGCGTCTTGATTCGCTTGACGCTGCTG | 256 |
| CGTCCTAGTGATTGTGATGTGGGTGCCATGAGGAAGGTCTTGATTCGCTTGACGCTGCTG | 91.5 |
| CTTTCCCGATCTTGTACAGTGGGTGTAGCACATTTGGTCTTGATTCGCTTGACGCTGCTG | 73.2 |
| CGTCCTAGTGATTGGCGAGTGGGTGCCATGAGGAAGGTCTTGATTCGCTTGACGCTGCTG | 85.9 |
| TGCGCAACAACTTTTCACGTGGTGTTATGTCTAGAAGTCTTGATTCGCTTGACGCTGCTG | 1130 |
| GAAAGATGTAGAAAACTCGTGGAGGTAGGATTATACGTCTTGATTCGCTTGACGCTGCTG | 80.7 |
| CGGGGTTAAGTTTGTCACTGGACTTGCTTGCAGCAGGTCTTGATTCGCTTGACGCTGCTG | 69.6 |
| AGGATGAGGAGGAGTTAGCAGAGGTATTCGCTAAGCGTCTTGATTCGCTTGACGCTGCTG | 61 |
| AAACAGTGCTCAATAATCGTGACGGGAGGGTCATTAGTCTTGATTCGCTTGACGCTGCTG | 93.2 |
| TGCTATTTATAGACGCGCGTGTCGGAATCAGGAAGCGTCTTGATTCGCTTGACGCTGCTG | 103 |
| CTACTACAGCGTAGGCACGGGTGCATACATCTTCAAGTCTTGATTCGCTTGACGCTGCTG | 83.3 |
| CGGCCGGCCGAAAGCCATGCGGCCCAACAAGCGGCGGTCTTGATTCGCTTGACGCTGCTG | 40.6 |
| AGGAAATCAAGACTGAACGTGTTGAAGATCAAAAGGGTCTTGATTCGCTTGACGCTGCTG | 87.4 |
| CTTTCCCGATCTTGTTTTGTGGGTGTAGCACATTTGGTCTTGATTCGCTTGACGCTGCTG | 75.4 |
| TACGCTGCCAGCGATTTCGTGCCAGCAGCTTTGACTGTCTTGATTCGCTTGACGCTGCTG | 70 |
| AAATTACTAAGTTGGTATGTGGGTGACGCCGTATGAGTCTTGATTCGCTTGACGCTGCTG | 71.5 |
| CGTCCTAGTGATTGTCACTCTACTTCCATGAGGAAGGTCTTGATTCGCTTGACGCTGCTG | 70.6 |
| CATACCCAACCTTGCACTGTGGGTGAAGATATTTGTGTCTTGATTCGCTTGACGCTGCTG | 69.1 |
| CGGATCGCATTATTGCACGATATCGCCGAATCTTTAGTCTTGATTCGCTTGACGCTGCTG | 66.7 |
| CTTTCCCGATCTTGACGCGTGGGTGTAGCACATTTGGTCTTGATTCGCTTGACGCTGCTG | 84.4 |
| GTCGACGATACATACAGAGCTGTTACAAAGTTCCATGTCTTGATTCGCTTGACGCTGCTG | 66.5 |

Study 4
Target: Sal-like protein 4, full length isoform A (SALL4, Homo sapiens, UniProt Q9UJQ4, residues 1-1053)
Sequence of UniProt Q9UJQ4 (whole entry, looked up): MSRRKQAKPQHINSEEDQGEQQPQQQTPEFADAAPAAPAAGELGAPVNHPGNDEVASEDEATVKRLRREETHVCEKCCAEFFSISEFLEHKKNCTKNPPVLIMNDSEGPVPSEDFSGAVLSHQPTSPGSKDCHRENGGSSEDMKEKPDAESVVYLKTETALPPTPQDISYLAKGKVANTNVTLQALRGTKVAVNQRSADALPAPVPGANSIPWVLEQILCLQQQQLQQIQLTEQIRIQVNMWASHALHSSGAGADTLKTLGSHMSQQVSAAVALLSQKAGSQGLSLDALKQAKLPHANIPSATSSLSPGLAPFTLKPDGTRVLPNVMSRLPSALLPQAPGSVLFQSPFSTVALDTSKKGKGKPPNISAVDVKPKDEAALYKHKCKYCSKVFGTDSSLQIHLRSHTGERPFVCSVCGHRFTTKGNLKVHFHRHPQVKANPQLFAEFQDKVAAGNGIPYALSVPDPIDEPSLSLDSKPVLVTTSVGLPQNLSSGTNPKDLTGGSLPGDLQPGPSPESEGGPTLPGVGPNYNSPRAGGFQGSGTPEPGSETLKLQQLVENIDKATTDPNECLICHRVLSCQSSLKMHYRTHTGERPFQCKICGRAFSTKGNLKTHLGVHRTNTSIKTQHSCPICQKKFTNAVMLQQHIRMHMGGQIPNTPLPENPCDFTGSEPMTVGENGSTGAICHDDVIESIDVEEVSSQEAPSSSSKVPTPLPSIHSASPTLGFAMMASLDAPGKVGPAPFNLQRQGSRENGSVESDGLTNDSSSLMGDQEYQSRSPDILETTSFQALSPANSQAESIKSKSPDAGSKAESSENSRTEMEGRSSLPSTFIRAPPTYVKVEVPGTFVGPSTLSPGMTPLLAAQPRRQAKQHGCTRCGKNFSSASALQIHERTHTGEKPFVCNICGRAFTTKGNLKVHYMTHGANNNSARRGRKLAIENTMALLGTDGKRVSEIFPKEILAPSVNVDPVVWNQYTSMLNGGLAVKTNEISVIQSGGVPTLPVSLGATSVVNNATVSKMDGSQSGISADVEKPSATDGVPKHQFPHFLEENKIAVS
Technique: universal PBM
Molecule type: double-stranded DNA, one strand shown
Matrix: in vitro
Tested at: 600 nM
Setting: 8-mer, flanks averaged, mean of replicates
Reading: higher = stronger binding
| Sequence | E-score |
| --- | --- |
| AGAGCCCA | -0.115 |
| GATTTCGA | 0.0535 |
| GTCTGAAA | -0.0447 |
| CCAGTAAC | -0.0676 |
| CCTAATAA | 0.362 |
| ACTACCCA | -0.0695 |
| GTTTGGAA | 0.162 |
| GGGCTATA | 0.0084 |
| TCATAGAA | 0.252 |
| CACCTTGG | -0.232 |
| GTAAAGCA | 0.152 |
| CCCAGCCC | -0.342 |
| CCTAAATA | 0.0805 |
| CTTGGCGC | -0.152 |
| CGCAAACA | 0.0707 |
| AATCCCCA | -0.156 |
| CGCCCTAA | -0.124 |

Study 5
Target: ABI1, truncated, D143A, DHFR fusion (Arabidopsis thaliana, UniProt P49597)
Technique: DHFR PCA, dose-response
Matrix: yeast
Setting: Hill fit, mean, not affinity
With: (+)-ABA, dose series
Reading: lower = more sensitive
Starting sequence: PYL1, truncated, DHFR fusion (Arabidopsis thaliana, UniProt Q8VZS8); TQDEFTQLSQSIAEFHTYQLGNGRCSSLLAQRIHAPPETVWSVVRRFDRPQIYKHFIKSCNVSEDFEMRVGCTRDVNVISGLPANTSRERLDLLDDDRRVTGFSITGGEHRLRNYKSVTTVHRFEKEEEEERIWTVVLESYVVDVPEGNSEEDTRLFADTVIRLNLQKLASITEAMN
| Variant | ABA EC50 |
| --- | --- |
| E38T | 11 µM |
| R98N | 3.63 µM |
| R111S | 64.9 µM |
| R113A | 2.74 µM |
| D95V | 119 µM |
| G148N | 5.75 µM |
| E139D | 461 µM |
| R123W | 18.1 µM |
| P146W | 330 µM |
| L156Q | 6.82 µM |
| T6E | 1.86 µM |
| T106C | 5.54 µM |
| I133Q | 1.86 µM |
| A170W | 380 µM |
| V143H | 886 µM |
| M68A | 9.45 µM |
| D97T | 3 µM |
| N22W | 6.67 µM |
| L112F | 6.25 µM |
| I12A | 52.7 µM |
| N165H | 158 µM |

A few entries again (study 3):
| Sequence | fluorescence intensity [a.u.] |
| --- | --- |
| AAACAGTGCTCAATAATCGTGACGGGAGGGTCATTAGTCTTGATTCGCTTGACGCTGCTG | 93.2 |
| TGCTATTTATAGACGCGCGTGTCGGAATCAGGAAGCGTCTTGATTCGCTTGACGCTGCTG | 103 |
| CTACTACAGCGTAGGCACGGGTGCATACATCTTCAAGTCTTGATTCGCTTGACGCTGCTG | 83.3 |
| CGGCCGGCCGAAAGCCATGCGGCCCAACAAGCGGCGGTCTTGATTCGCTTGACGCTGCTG | 40.6 |
| AGGAAATCAAGACTGAACGTGTTGAAGATCAAAAGGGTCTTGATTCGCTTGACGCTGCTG | 87.4 |
| CTTTCCCGATCTTGTTTTGTGGGTGTAGCACATTTGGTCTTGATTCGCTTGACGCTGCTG | 75.4 |
| TACGCTGCCAGCGATTTCGTGCCAGCAGCTTTGACTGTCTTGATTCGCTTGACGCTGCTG | 70 |
| AAATTACTAAGTTGGTATGTGGGTGACGCCGTATGAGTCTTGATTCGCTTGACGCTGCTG | 71.5 |
| CGTCCTAGTGATTGTCACTCTACTTCCATGAGGAAGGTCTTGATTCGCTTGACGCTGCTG | 70.6 |
| CATACCCAACCTTGCACTGTGGGTGAAGATATTTGTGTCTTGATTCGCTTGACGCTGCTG | 69.1 |
| CGGATCGCATTATTGCACGATATCGCCGAATCTTTAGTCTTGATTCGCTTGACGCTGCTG | 66.7 |
| CTTTCCCGATCTTGACGCGTGGGTGTAGCACATTTGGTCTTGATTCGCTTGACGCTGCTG | 84.4 |
